{"data": "Published values from different studies", "note": "Compare with care: the assays were run in different laboratories."}
{"Compound": "CC(C)c1nc(N(C)S(C)(=O)=O)nc(-c2ccc(F)cc2)c1/C=C/[C@@H](O)C[C@@H](O)CC(=O)O", "system": "cynomolgus sandwich-cultured hepatocytes", "setting": "1 µM", "measurement": "scaled biliary intrinsic clearance", "value": "6.6 mL/min/kg"}
{"Compound": "O=C(O)CNC(=O)c1ncccc1O", "assay": "shake-flask, potentiometric", "system": "1-octanol/water", "measurement": "logP", "value": -0.1}
{"Compound": "Cc1cccc(Cn2cc(CO)c3cnccc32)c1", "system": "male F344 rat, serum", "setting": "oral, 100 mg/kg/day, 2 days", "measurement": "AST", "value": "113 U/L"}
{"Compound": "O=c1c(O)c(-c2ccc(O)c(OS(=O)(=O)O)c2)oc2cc(O)cc(O)c12", "system": "human, cerebrospinal fluid", "setting": "concentration not given, median", "measurement": "CSF concentration", "value": "18.1 nM"}
{"Compound": "COc1c(OCCCN2CCOCC2)ccc2c1N=C(NC(=O)c1cnc(N)nc1)N1CCN=C21", "system": "human", "setting": "together with: itraconazole", "measurement": "decrease in clearance", "value": "36.1%"}
{"Compound": "COc1ccc([C@@H](O)c2cc(-c3ncnc4cc(N5CCOCC5)ccc34)c(F)cc2Cl)nn1", "system": "locally advanced rectal cancer patients", "setting": "250 mg, together with: capecitabine and radiotherapy", "measurement": "gastrointestinal disorder TEAE", "value": "100%"}
{"Compound": "CC(=O)N[C@@H](CCCNC(=N)N)C(=O)N[C@H]1CSSC[C@@H](C(N)=O)NC(=O)[C@H](Cc2c[nH]c3ccccc23)NC(=O)[C@H](CCCNC(=N)N)NC(=O)[C@@H](Cc2ccccc2)NC(=O)[C@H](Cc2c[nH]cn2)NC(=O)[C@@H](C)NC1=O", "system": "telemetered cynomolgus monkeys", "setting": "subcutaneous, 3 mg/kg", "measurement": "nighttime blood pressure", "value": "increased"}
{"Compound": "Cc1ccc(C(=O)N(CCCN)C(c2nc3snc(C)c3c(=O)n2Cc2ccccc2)C(C)C)cc1 (stereo not drawn)", "assay": "pneumonia grade ≥3 (CTCAE)", "system": "human patients", "setting": "intravenous, 7 mg/day", "measurement": "patients with adverse event", "value": "25%"}
{"Compound": "FC(F)(F)c1ccc(CNc2ccc(Cc3c[nH]c4ncc(Cl)cc34)cn2)cn1", "system": "patients with advanced solid tumours", "setting": "oral, 1000 mg/day, non-TGCT cohort, all grades", "measurement": "decreased appetite incidence", "value": "39%"}
{"Compound": "O=C(COc1ccc(Cl)cc1)NC12CC(c3nnc([C@H]4C[C@@H](OC(F)(F)F)C4)o3)(C1)C2", "system": "human both sexes", "setting": "oral, 400 mg single dose", "measurement": "participants with TEAE", "value": "100%"}
{"Compound": "Cc1cc(-c2nccc3c2ccn3CC(=O)Nc2ccc(-c3cnccn3)cn2)ccn1", "system": "human", "setting": "MAD part, 15 mg once daily", "measurement": "subjects with any grade 3 TEAE", "value": "0%"}
{"Compound": "CC(C)(C(=O)N1CCOc2c(C#N)cncc2C1)C(F)F", "assay": "measured: Dermatitis", "system": "human", "setting": "oral, 15 mg twice daily, 14 days, multiple ascending dose", "measurement": "subjects with adverse event", "value": "0%"}
{"Compound": "CC[N+]([O-])(CC)CCNC(=O)c1c(C)[nH]c(/C=C2\\C(=O)Nc3ccc(F)cc32)c1C", "system": "human, serum", "setting": "50 mg maintenance, median", "measurement": "serum concentration/dose ratio", "value": 0.006}
{"Compound": "O=C(OC(C(F)(F)F)C(F)(F)F)N1CCN(Cc2cccc(Oc3ccccc3)c2)CC1", "assay": "PET blocking study", "system": "rhesus monkey, brain OCC", "setting": "0.3 mg/kg, compound pretreatment, together with: [18F]T-401 tracer", "measurement": "k2", "value": "0.138 min⁻¹"}
{"Compound": "COc1ccccc1NC(=O)CSc1nncn1C", "system": "octanol/buffer", "setting": "pH 11, known kinase inactives set", "measurement": "logP", "value": 0.79}
{"Compound": "COc1cc2c(Nc3ccc(Cl)c(Cl)c3F)ncnc2cc1OC[C@@H]1C[C@@H]2CN(C)C[C@@H]2C1", "system": "FVB wild-type mouse", "setting": "oral, 70 mg/kg, 2 h", "measurement": "total brain concentration", "value": "720 ng/mL"}
{"Compound": "NC[C@H](NC(=O)c1ccc(C#CC#Cc2ccccc2)cc1)C(=O)NO", "system": "octanol/buffer", "setting": "pH 11", "measurement": "logP", "value": 2.16}
{"Compound": "Cc1cc(NC(=O)c2cccc(NC(=O)/C=C/CN(C)C)c2)ccc1Nc1nccc(-c2cccnc2)n1", "assay": "metabolic stability", "system": "Wistar rat, male, primary hepatocytes", "setting": "1 µM, 30 min", "measurement": "compound remaining", "value": "81.6%"}
{"Compound": "CC(C)n1c(Nc2cccnc2)nc2cnc(Nc3ccc(N4CCN(C)CC4)cc3)nc21", "assay": "measured: oral ulcers", "system": "healthy male subjects", "setting": "oral, 150 mg, study, together with: rifampin", "measurement": "subjects with adverse event", "value": "7.1%"}
{"Compound": "CC1=C(c2cccc(O)c2)[C@H](c2ccc(OCCN3CC(CF)C3)cc2)Oc2ccc(O)cc21", "system": "human, plasma", "setting": "oral, 1400 mg single dose, geometric mean", "measurement": "AUC(0-24 h)", "value": "1410 ng·h/mL"}
{"Compound": "C[C@@H](N)C1CCN(S(=O)(=O)c2cccc3cnccc23)CC1", "system": "healthy volunteers", "setting": "250 mg, fasted", "measurement": "participants with epistaxis", "value": "0%"}
{"note": "Some of these lines once more:"}
{"Compound": "O=C(O)CNC(=O)c1ncccc1O", "assay": "shake-flask, potentiometric", "system": "1-octanol/water", "measurement": "logP", "value": -0.1}
{"Compound": "Cc1cccc(Cn2cc(CO)c3cnccc32)c1", "system": "male F344 rat, serum", "setting": "oral, 100 mg/kg/day, 2 days", "measurement": "AST", "value": "113 U/L"}
{"Compound": "O=c1c(O)c(-c2ccc(O)c(OS(=O)(=O)O)c2)oc2cc(O)cc(O)c12", "system": "human, cerebrospinal fluid", "setting": "concentration not given, median", "measurement": "CSF concentration", "value": "18.1 nM"}
